Results pooled from the literature.
Each numbered part is a random draw from the data of one study; scales do not carry over between parts.

Series 1 — technique: universal PBM; molecule type: double-stranded DNA, one strand shown; medium: in vitro; tested at: 600 nM; reading: higher = stronger binding
Target: Sal-like protein 4, full length isoform A (SALL4, Homo sapiens, UniProt Q9UJQ4, residues 1-1053)
Sequence of UniProt Q9UJQ4 (whole entry, looked up): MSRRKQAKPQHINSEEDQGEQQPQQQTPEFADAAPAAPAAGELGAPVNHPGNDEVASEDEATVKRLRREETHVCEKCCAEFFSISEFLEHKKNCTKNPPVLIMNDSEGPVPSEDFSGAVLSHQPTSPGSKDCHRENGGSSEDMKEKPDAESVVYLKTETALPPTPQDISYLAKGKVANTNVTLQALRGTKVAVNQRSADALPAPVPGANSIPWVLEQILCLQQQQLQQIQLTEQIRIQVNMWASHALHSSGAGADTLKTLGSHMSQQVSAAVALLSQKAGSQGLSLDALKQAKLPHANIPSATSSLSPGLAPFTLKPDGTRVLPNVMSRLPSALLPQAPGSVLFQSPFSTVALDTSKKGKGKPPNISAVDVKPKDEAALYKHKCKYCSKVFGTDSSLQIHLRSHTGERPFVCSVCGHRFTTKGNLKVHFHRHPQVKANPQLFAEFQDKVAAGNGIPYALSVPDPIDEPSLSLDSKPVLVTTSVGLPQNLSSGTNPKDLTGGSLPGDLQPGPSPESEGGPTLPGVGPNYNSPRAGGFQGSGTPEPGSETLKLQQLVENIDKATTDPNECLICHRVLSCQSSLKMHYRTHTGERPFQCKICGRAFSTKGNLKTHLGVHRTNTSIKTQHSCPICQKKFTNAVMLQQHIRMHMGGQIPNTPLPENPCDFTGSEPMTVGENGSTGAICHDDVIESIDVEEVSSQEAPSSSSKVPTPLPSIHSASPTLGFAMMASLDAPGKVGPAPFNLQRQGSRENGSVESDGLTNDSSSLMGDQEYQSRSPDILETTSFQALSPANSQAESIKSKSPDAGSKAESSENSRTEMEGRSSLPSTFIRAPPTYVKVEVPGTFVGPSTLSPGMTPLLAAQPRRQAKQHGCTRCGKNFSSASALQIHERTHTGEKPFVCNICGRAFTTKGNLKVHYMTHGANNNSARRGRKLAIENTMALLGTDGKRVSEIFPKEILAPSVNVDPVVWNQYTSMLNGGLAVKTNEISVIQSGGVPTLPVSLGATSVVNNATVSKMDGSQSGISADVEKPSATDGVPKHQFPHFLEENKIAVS
Setting: 8-mer, flanks averaged, mean of replicates
`ATCTCCTC` gave an E-score of -0.0617.
The E-score of `CCCAAAAC` is reported as 0.0869.
`CCTGGCCG` has an E-score of -0.281.
`CTGGCTGC` gave an E-score of -0.327.
For `GCGTAATA`, the E-score was 0.293.
With `ACGCGTGA` the E-score was -0.0154.

Series 2 — technique: RNAcompete; molecule type: RNA; medium: in vitro; tested at: 20 nM; setting: 7-mer, probes averaged, single round; reference: mean of 7-mers; reading: higher = stronger binding
Target: PABPC1L2, full length, GST fusion (mouse, UniProt A0ABA7IW68)
Construct (chain): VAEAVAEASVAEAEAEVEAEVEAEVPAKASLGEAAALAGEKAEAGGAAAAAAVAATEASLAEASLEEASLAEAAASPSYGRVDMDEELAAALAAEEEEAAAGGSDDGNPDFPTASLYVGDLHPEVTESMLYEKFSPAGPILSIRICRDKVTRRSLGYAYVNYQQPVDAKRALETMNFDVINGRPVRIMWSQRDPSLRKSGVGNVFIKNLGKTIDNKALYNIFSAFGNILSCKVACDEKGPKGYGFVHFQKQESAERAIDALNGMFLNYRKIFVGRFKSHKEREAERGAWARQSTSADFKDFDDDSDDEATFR
`GAAAAAG` gave a 7-mer Z-score of 12.2.
`UGCGCUU` has a 7-mer Z-score of -0.202.
`GUAUUCC` has a 7-mer Z-score of -0.331.
The 7-mer Z-score of `CGCGACC` is reported as -0.197.

Series 3 — technique: protein binding microarray; molecule type: double-stranded DNA, one strand shown; medium: in vitro; tested at: not given; reference: not given; reading: higher = stronger binding
Target: Histone acetyltransferase KAT6A, winged helix 1, GST fusion (KAT6A, Homo sapiens, UniProt Q92794, residues 1-85)
Setting: 8-mer, flanks averaged, mean of 2 arrays, mostly near background
Residues (chain): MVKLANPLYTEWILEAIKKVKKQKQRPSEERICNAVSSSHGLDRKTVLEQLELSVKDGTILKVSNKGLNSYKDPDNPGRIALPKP
`ACCGGCCG` has an E-score of 0.434.
With `CAGATGTC` the E-score was -0.0556.
The E-score of `AGCTGGAC` is reported as -0.273.
With `TATACATA` the E-score was -0.196.
`GCGTCTGA` gave an E-score of 0.0771.

Single results of other studies
`PhoQ, residues 284 288 289 292 302 303 SLANKL` has a fold induction of 18.4 (PhoP, residues 12 14 15 18 19 GQALL (Escherichia coli, UniProt P23836); Sort-seq, measured: YFP reporter; E. coli; PhoQ-PhoP variant library, added: 10 µM Mg2+; reference: high Mg2+ state, higher = stronger signaling).
